# Measurements gathered from unrelated publications.
# Each numbered part is a random draw from the data of one study; scales do not carry over between parts. Positions count from the first letter of the parent shown.

# Series 1
# Target: HLA class I histocompatibility antigen, A alpha chain, allele A*25:01 (Homo sapiens, UniProt P04439)
# Effect on: peptide-MHC binding
# Form: peptide
# Tested at: concentration not given
Sequence,binding
LELIGNAES,inactive
SLFGAAVSL,inactive
RIEQLYPFA,inactive
RVHFHRFMY,inactive
SLFNWLWYE,inactive
AESICSYWL,inactive
ELYENKPDV,inactive
VSSHKGWAK,inactive

# Series 2
# Target: CCND3, cyclin fold, Cln2 fusion (human)
# Technique: yeast growth competition, sequencing
# Matrix: yeast
# Notes: weak parent motif
# Reference: not given
# Direction: higher = stronger binding
# Starting sequence: viral docking peptide; KGVKRKLFAEDSS; partner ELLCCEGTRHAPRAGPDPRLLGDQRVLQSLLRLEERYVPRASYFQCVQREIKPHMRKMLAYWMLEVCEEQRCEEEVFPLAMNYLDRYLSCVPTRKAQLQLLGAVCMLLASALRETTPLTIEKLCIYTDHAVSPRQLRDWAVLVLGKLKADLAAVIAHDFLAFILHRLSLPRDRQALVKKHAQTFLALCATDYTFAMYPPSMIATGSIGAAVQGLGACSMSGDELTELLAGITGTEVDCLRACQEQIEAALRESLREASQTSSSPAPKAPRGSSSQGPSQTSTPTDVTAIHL
Substitution,normalised enrichment score
KGVKRGLFAEDSS [K6G],0.347
KGVKRKLFPEDSS [A9P],-0.00672
KGVKRKLEAEDSS [F8E],0.575
KGVGRKLFAEDSS [K4G],0.277
KGVKRILFAEDSS [K6I],-0.0915
KGVKRKLFCEDSS [A9C],0.135
KGVKRLLFAEDSS [K6L],0.151
KLVKRKLFAEDSS [G2L],-0.117

# Series 3
# Target: Sodium-dependent serotonin transporter (SLC6A4, Homo sapiens, UniProt P31645)
# Effect on: cell-free assay
# Tested at: 10 µM
Compound,inhibition [%]
Cc1ccccc1Oc1cc(-n2c(=O)cc(C(F)(F)F)[nH]c2=O)c2ccccc2c1Cl,-21.4
FC(F)(F)c1ccc2c(c1)nc(-c1cccnc1)n2C1CC1,-5.44
Cc1c(NC(=O)c2cc(C(N)=O)nc3cc(F)ccc23)c(C(F)(F)F)nn1Cc1ccc(C#N)cc1,0.483
NC(=O)c1ccc2nc(-c3ccc(C4(N)CCC4)cc3)c(-c3ccccc3)n2n1,14.8
C[C@H](c1ccc(F)cc1)N(Cc1cccc(C(=O)O)c1)C(=O)c1cnc2ccccc2c1,23.4
Cc1ncc(-c2cc(Cl)ccc2F)cc1-n1c(=O)n(CC(N)=O)c2ccccc21,14.3
O=C(c1ccc(F)cc1)N1CC(COc2ccc(Br)cc2)(C(=O)O)C1,-6.29
COCCOc1nc(-c2ccc(Cl)nc2)nc2c1CN(C(=O)c1ncn3ccccc13)CC2,2.72
CN1CCN(C(=O)C(C)(C)c2ccc(C(=O)Nc3cn4cc(-c5cc(C(C)(C)C)cc(C(C)(C)C)c5)ccc4n3)cc2)CC1,26.3
Cc1noc([C@H]2C[C@@H](c3ccc(C(F)(F)F)cc3)CN(C(=O)N3CCS(=O)(=O)C3)C2)n1,5.57
CO[C@H]1CC[C@H](CNc2ccc(S(=O)(=O)NC(=O)c3ccc(N4CCN(CC5=C(c6ccc(Cl)cc6)CC(C)(C)CC5)CC4)cc3Oc3cnc4[nH]ccc4c3)cc2[N+](=O)[O-])CC1,25.1
CN(c1ccnc(CNc2nc(Nc3ccc4c(c3)CC(=O)N4)ncc2C(F)(F)F)n1)S(C)(=O)=O,33.5
Cn1nc(C(F)(F)F)cc1-c1cnc(N2CCc3cc(S(=O)(=O)Nc4c(F)cc(Cl)cc4F)cc(N4CCCC4=O)c32)nc1,0.95
O=C(NNS(=O)(=O)c1ccccc1)c1cc(-c2ccnnc2)ccc1F,6.15

# Single results of other studies
SMILES,cell line,technique,tested at,quantity,value
CN(C)c1ccc(C(=C2C=CC(=[N+](C)C)C=C2)c2ccc(N(C)C)cc2)cc1,HEK-293T-ACE2-TMPRSS2,cell count,10 µM,viability,131%

# Repeated from above (series 2):
Substitution,normalised enrichment score
KGVKRKLFPEDSS [A9P],-0.00672
KGVKRKLEAEDSS [F8E],0.575
KGVGRKLFAEDSS [K4G],0.277
